{"data": "Experimental data of several laboratories", "note": "Numbered parts are unrelated; each lists some results of a single study. Changes are numbered by the printed parent chain."}
{"data": "Sample 1", "target": "RING finger protein unkempt homolog, zinc fingers 1-6, GST-SBP tag (UNK, Homo sapiens, UniProt Q9C0B0, residues 30-357)", "method": "RNA Bind-n-Seq", "molecule type": "RNA", "matrix": "in vitro", "concentration": "not given", "setting": "RNA with constant flanks, human-mouse chimeric sites, ends assumed", "baseline": "input RNA pool", "direction": "higher = stronger binding", "all sequences stand within": "GGGAGUUCUACAGUCCGACGAUC … CAACAGAGGAUUGAGCAUCA", "chain of UniProt Q9C0B0 (30-357, looked up)": "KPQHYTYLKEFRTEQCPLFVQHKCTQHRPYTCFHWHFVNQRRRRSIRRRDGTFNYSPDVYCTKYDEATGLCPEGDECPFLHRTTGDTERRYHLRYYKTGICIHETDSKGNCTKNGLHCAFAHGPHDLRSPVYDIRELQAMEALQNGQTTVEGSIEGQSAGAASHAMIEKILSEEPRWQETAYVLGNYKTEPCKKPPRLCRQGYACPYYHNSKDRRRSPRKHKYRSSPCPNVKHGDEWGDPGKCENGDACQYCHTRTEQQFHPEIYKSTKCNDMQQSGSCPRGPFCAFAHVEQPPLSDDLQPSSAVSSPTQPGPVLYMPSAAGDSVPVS"}
{"Oligonucleotide": "ACACAAUAUGAGACCAACAGCAUGGACUUCAAAGUUGGGGCAGAUGGGACAGUCUUCGCCACCCGGGAGCUGCAGGUCCCCUCAGAGCAGGUGGCGUUCACGGUGACUGCAUGGGACAGC", "bound/input enrichment [ratio]": 0.238}
{"Oligonucleotide": "AUCAAAUAUUUUGGGGACAUCAUUAGUGUGGGACAGAGACUGUUGCAAGGAGCUCGGAUCUUAGGGAUUCCAGUUAUCAUAACGGAACAAUACCCCAAAGGACUUGGGAGCACGGUUCAA", "bound/input enrichment [ratio]": 0.261}
{"Oligonucleotide": "AAAGCCCUUGAAGAAAAAAAAAACUCGAACAGAUUUGACAAGGGUAGCCAGCUUGGAGUCUAGCAACUUGCCAAUGUGUUUACCAAUUUUGGGGGCUGUUUUUCUUUUCUUCUUUCAAAU", "bound/input enrichment [ratio]": 0.422}
{"Oligonucleotide": "UGGCGCCUGCGCUCCCCACUCGUGUUUUUAAGUGUAUAAGAUGUAUAUACAUGUAUUUACAAUUGAGCUUUUGUUACAUAAUGCUGAAAUGCUACUGCAAUAUUAUGAAAAUGUUUCAAU", "bound/input enrichment [ratio]": 0.11}
{"Oligonucleotide": "CAGCCUCAGAGCCCAGACUUCCUGGAUAUUACCAACCCUAAAGCGGUAUUAGAAAAUGCAUUGAGAAACUUCGCCUGUCUGACGACUGGGGAUGUGAUUGCCAUCAACUACAAUGAGAAG", "bound/input enrichment [ratio]": 0.389}
{"Oligonucleotide": "GGGGAGAAACCUUAUGAGUGUGUGCAGUGUGGGAAAUCGUAUAGUCAGAGCUCAAACCUCUUCAGACAUCAGAGACGACACAAUGCAGAAAAACUUUUGAAUGUUGUGAAGGUUUAAGAA", "bound/input enrichment [ratio]": 0.613}
{"Oligonucleotide": "GUGACUGGUGUUAAGAUUUCCCCUCAGCAAAGAAGUGCAGUAGUCACCAUAAUUCCAUCUGUGGUGAAUGCCAAUCAGAUUGUGGAGCUGGUCCCAGAACUCAGUUUAGACAUGGGAACU", "bound/input enrichment [ratio]": 0.42}
{"Oligonucleotide": "UCCCAAAUCCAGCAGCUAGAAGGAGCCUUGAGACAAACACUCCACACACAGGGAAGGCAAUAGCUUUGUAAAUUGGUUUACAUUUUUUCCCCCUGUGGAUUUUUCUAGAGGUCAUAGUGC", "bound/input enrichment [ratio]": 0.56}
{"data": "Sample 2", "target": "PABPC1L2, full length, GST fusion (mouse, UniProt A0ABA7IW68)", "method": "RNAcompete", "molecule type": "RNA", "matrix": "in vitro", "concentration": "20 nM", "setting": "7-mer, probes averaged, single round", "baseline": "mean of 7-mers", "direction": "higher = stronger binding", "Construct (chain)": "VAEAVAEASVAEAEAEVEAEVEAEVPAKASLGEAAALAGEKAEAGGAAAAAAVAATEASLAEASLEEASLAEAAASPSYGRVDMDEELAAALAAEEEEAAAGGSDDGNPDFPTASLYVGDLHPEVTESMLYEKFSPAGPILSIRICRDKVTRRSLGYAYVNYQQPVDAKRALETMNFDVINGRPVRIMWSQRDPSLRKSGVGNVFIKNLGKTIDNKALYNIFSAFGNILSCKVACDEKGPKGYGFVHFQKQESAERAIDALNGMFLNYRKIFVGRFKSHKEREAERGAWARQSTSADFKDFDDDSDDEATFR"}
{"Oligonucleotide": "CUACGUC", "7-mer Z-score": -0.396}
{"Oligonucleotide": "AGCGAUG", "7-mer Z-score": 0.0569}
{"Oligonucleotide": "AGUGAGC", "7-mer Z-score": -0.199}
{"Oligonucleotide": "CAUAUCC", "7-mer Z-score": -0.184}
{"Oligonucleotide": "GGGGCCA", "7-mer Z-score": 0.617}
{"Oligonucleotide": "CCAUGCC", "7-mer Z-score": -0.249}
{"Oligonucleotide": "AGAGUUC", "7-mer Z-score": -0.376}
{"Oligonucleotide": "UAGAAUA", "7-mer Z-score": 0.0406}
{"data": "Sample 3", "target": "Prothrombin, mature alpha-thrombin (F2, Homo sapiens, UniProt P00734)", "method": "aptamer microarray, sandwich", "molecule type": "DNA with 2'F-ANA", "matrix": "in vitro", "concentration": "200 nM", "setting": "whole 15-mer aptamer, many near background", "added": "Cy3 exosite-II aptamer, 400 nM", "direction": "higher = stronger binding", "oligonucleotide": "GGTTGGTGTGGTTGG"}
{"Modification": "2'F-ANA at 3 5 7 9 10 11 12 13", "mean fluorescence intensity [a.u.]": 65.6}
{"Modification": "2'F-ANA at 1 4 5 6 11 13", "mean fluorescence intensity [a.u.]": 51}
{"Modification": "2'F-ANA at 5 7 10 12 15", "mean fluorescence intensity [a.u.]": 51.9}
{"Modification": "2'F-ANA at 2 5 6 9 10 11 14 15", "mean fluorescence intensity [a.u.]": 49.4}
{"Modification": "2'F-ANA at 2 3 4 9 10 12 14 15", "mean fluorescence intensity [a.u.]": 185}
{"Modification": "2'F-ANA at 1 3 4 5 6 7 8 9 11 12 14 15", "mean fluorescence intensity [a.u.]": 51.5}
{"Modification": "2'F-ANA at 2 3 5 6 7 10 11 12 13 15", "mean fluorescence intensity [a.u.]": 75.6}
{"Modification": "2'F-ANA at 1 2 3 5 7 8 9 10 11 12 13", "mean fluorescence intensity [a.u.]": 60.8}
{"data": "Further values, each from its own experiment", "starting sequence": "viral docking peptide; CKVKRKLFGSENI"}
{"Substitution": "F8A", "target": "CCNB1, cyclin fold, Cln2 fusion (human)", "test": "yeast growth competition, sequencing", "system": "yeast", "setting": "weak parent motif", "scale": "baseline: not given, higher = stronger binding", "endpoint": "normalised enrichment score", "result": 0.309}
{"note": "Excerpt of the above (sample 2):"}
{"Oligonucleotide": "CUACGUC", "7-mer Z-score": -0.396}
{"Oligonucleotide": "AGCGAUG", "7-mer Z-score": 0.0569}
